Results from different studies.
Numbered parts are unrelated; each lists some results of a single study. Substitutions count along the parent as printed.

Set 1
Target: BATF3, bZIP domain (human)
Technique: DHFR protein complementation
Matrix: yeast
Notes: single substitutions, most at no-binding floor
Reference: wild-type JUN-FOS pair
Reading: higher = stronger binding
Quantity: binding fitness
Parent: JUN, bZIP domain (human); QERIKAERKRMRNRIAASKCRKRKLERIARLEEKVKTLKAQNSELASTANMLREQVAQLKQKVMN; partner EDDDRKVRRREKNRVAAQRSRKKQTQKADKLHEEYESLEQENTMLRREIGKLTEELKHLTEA
L52W: -0.325 natural log
A40T: 0.306 natural log
E33F: 0.106 natural log
E54V: 0.0828 natural log
K36I: 0.192 natural log
S47K: 0.265 natural log
L38W: -0.167 natural log

Set 2
Target: Sal-like protein 4, full length isoform A (SALL4, Homo sapiens, UniProt Q9UJQ4, residues 1-1053)
UniProt Q9UJQ4, sequence (whole entry, looked up): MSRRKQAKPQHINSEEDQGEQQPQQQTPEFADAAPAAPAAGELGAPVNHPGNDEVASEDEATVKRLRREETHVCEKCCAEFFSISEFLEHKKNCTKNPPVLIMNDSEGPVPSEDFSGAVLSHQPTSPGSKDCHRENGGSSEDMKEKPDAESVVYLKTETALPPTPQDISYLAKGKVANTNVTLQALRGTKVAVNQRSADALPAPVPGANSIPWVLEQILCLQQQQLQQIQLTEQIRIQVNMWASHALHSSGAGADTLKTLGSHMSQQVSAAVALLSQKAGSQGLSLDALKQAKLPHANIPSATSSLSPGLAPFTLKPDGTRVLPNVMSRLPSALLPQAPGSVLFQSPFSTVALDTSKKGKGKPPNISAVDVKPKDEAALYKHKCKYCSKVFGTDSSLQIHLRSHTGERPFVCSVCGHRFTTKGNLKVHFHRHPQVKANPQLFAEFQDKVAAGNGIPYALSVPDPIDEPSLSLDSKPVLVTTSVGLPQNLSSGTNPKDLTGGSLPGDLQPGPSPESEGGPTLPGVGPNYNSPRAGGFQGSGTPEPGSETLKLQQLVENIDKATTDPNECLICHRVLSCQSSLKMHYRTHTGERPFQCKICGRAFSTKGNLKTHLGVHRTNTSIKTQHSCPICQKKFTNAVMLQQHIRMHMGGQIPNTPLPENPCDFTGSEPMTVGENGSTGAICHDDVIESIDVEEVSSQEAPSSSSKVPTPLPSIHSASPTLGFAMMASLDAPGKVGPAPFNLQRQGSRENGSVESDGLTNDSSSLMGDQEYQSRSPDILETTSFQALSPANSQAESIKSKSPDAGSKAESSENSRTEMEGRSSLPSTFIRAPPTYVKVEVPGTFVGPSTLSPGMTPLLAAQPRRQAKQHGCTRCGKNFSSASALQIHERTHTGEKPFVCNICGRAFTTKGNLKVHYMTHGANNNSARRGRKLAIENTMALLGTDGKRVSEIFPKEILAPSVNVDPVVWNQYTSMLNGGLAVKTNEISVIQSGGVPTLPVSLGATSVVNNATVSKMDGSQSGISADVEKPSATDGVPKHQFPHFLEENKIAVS
Technique: universal PBM
Molecule type: double-stranded DNA, one strand shown
Matrix: in vitro
Tested at: 600 nM
Notes: 8-mer, flanks averaged, mean of replicates
Reading: higher = stronger binding
Quantity: E-score
ATAACCTC: 0.241
AACTACCA: 0.125
GAACCCGA: -0.292
AGGGAAAA: 0.215
AGGTGCTA: 0.101
AATCAACT: 0.125
ATTGTGGC: 0.0133
GTCCTAAA: 0.046

Set 3
Target: CCNA1, cyclin fold, Cln2 fusion (human)
Technique: yeast growth competition, sequencing
Matrix: yeast
Notes: weak parent motif
Reference: not given
Reading: higher = stronger binding
Quantity: normalised enrichment score
Parent: CENPC docking peptide (human); VKTKKRLNFDDKV; partner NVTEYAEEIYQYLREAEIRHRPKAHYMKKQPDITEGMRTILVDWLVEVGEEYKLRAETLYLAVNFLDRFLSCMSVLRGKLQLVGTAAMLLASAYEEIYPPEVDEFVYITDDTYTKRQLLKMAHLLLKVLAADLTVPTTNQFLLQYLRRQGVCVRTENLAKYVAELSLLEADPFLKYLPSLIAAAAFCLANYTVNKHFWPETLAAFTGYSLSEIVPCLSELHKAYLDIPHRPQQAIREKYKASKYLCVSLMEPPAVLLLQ
F9A: 0.0337
V13A: -0.269
V1A: 0.312
K5R: 1.63
L7A: 0.232
D10A: -0.163
K12A: 0.814

Mixed results
PhoQ, residues 284 288 289 292 302 303 TLASMF
fold induction (PhoP, residues 12 14 15 18 19 GHCSL (Escherichia coli, UniProt P23836); Sort-seq, item: YFP reporter; E. coli; PhoQ-PhoP variant library, with: 10 µM Mg2+; reference: high Mg2+ state, higher = stronger signaling): 18.4

Excerpt of the above (set 3):
V13A: -0.269
V1A: 0.312
